Published values of several laboratories.
Compare with care: the assays were run in different laboratories. Values joined by “and” are separate records of one study, mostly repeats; a detail may differ. ± marks the error that the study gave.
UniProt Q16816, sequence (whole entry, looked up): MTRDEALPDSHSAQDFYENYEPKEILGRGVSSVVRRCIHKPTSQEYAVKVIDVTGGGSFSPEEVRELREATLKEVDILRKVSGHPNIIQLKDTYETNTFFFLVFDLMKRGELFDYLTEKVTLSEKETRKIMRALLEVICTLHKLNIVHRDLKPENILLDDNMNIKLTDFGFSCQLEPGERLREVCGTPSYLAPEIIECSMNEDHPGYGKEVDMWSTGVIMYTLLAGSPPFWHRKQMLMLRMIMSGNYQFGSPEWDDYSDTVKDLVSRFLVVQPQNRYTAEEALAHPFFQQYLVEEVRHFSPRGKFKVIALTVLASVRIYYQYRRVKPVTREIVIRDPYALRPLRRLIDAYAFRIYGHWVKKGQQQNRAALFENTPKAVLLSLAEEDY

`C[n+]1cccc2cc(/C=N/NC(=O)c3cccc(C(=O)N/N=C/c4ccc5c(ccc[n+]5C)c4)c3)ccc21` gave a ΔTm of 4.4 ± 0.3 °C (MYC parallel G4 DNA; FRET melting; 1 µM, DNA 0.2 µM, with: duplex DNA competitor 10 µM).
The IC50 of `Cc1nn(-c2cccc(N)c2)c(=O)c2cnc(Nc3ccc(N4CCNCC4)cc3)nc12` is reported as > 10 µM (Phosphorylase b kinase gamma catalytic chain, skeletal muscle/heart isoform (PHKG1, Homo sapiens, UniProt Q16816); kinase activity, inhibitor, SelectScreen kinase profiling).
`COc1cc2c(NC3CCN(C(C)C)CC3)cc(N3CCOCC3)nc2cc1OCCCN1CCCC1` — result for “log2 fold change”: 0.0411 (TMT proteomics, item: TPI1; 5xFAD mice, hippocampus; dose not given; relative to: untreated 5xFAD mice).
Under “log2 fold change”, `COC1CN([C@H]2CC[C@H]([C@@]3(C)Oc4c(Cl)cc(C(=O)NCc5c(SC)cc(C)[nH]c5=O)c(C)c4O3)CC2)C1` is recorded as 1.42 (RNA-seq, item: GABARAPL1; human, whole blood; dose not given, 24 h; relative to: pretreatment baseline).
With `CN1CCC[C@]1(C)/C=C/S(=O)(=O)NC(=O)Nc1c2c(cc3c1CCC3)CCC2` the IL-1β inhibition was 98% (human, whole blood ex vivo; 100 mg twice daily, day 1, 12 h, multiple ascending dose, with: LPS and ATP).
`O=C(NS(=O)(=O)c1cccs1)c1cc2ccccc2n1Cc1ccc(Br)c2ccccc12` gave a serum creatinine of 32.4 µM and 43.8 µM and 32.6 µM and 30.2 µM and 38 µM and 35.8 µM (mouse, chronic hyperuricaemia model, serum; dose not given).
`C=C(NC(=O)c1csc(-c2nc3c(cc2O)-c2nc(cs2)C(=O)NC(C(C)O)C(=O)NC(=C(C)OC)c2nc(cs2)C(=O)NC2c4nc(cs4)C(=O)NC(COC(=O)c4c5c6c(cccc6n4O)COC(=O)C(OC4CC(C)(O)C(N(C)C)C(C)O4)C2OC5)c2nc-3cs2)n1)C(N)=O` (stereo not shown) — result for “volume of distribution”: 1.82 L/kg (cynomolgus monkey, both sexes, plasma; intravenous infusion, 9 mg/kg single dose).
With `CC(=O)[O-].O.O.O.O.[Ni+2].[O-]c1ccc(Br)cc1C=NCCN1CCOCC1` the inhibition was 14.6% (superoxide scavenging; 80 µM).
For `CCN(C(=O)c1cc(F)ccc1Oc1nncnc1N1CCC2(C1)CN([C@H](CCCN(C)CCOC)C(C)C)C2)C(C)C`, “increase in life span” read 95% (OCI-AML-3, mouse, disseminated AML model; 100 mg/kg).
`COC1OC(C)C(OS(=O)(=O)O)C(OC2OC(C)C(OS(=O)(=O)O)C(OC3OC(C)C(OS(=O)(=O)O)C(OC4OC(C)C(OS(=O)(=O)O)C(OC5OC(C)C(OS(=O)(=O)O)C(OC6OC(C)C(OS(=O)(=O)O)C(OC7OC(C)C(OS(=O)(=O)O)C(OC8OC(C)C(OS(=O)(=O)O)C(OC9OC(C)C(OS(=O)(=O)O)C(OC%10OC(C)C(OS(=O)(=O)O)C(OC%11OC(C)C(OS(=O)(=O)O)C(OC%12OC(C)C(OS(=O)(=O)O)C(OS(=O)(=O)O)C%12O)C%11O)C%10O)C9O)C8O)C7O)C6O)C5O)C4O)C3O)C2O)C1O` (stereo not shown) gave a prothrombin time of 14.6 ± 0.2 s (human plasma; 128 µg/mL).
`CC(C)C[C@H](NC(=O)[C@H](CC(=O)O)NC(=O)CNC(=O)[C@@H](N)CCCNC(=N)N)C(=O)N[C@@H](C)C(=O)N[C@H](C(=O)N[C@@H](CC(C)C)C(=O)N[C@@H](CCCNC(=N)N)C(=O)N[C@@H](CCC(N)=O)C(=O)N[C@@H](CC(C)C)C(=O)N[C@@H](C)C(=O)N[C@@H](CCC(N)=O)C(=O)N[C@@H](CCC(=O)O)C(=O)N[C@@H](CC(=O)O)C(=O)NCC(=O)N[C@H](C(=O)N[C@H](C(=O)NCC(=O)N[C@H](C(=O)N[C@@H](CCCNC(=N)N)C(=O)NCCOCCOCCOCCOCCOCCOCCOCCOCCOCCOCCOCCOCCC(=O)N[C@@H](CS)C(N)=O)C(C)C)C(C)C)C(C)C)[C@@H](C)O` — result for “fluorescence signal ratio”: 0.19 and 0.49 (ex vivo NIR imaging; NOD/SCID mice, xenograft, H460 xenograft; intravenous, 30 µg, 24 h; relative to: lung).
`Nc1ncc(-c2cc(-c3cnn(CC(F)(F)F)c3)ncc2F)nc1C(=O)NC1CNCC(F)C1` (stereo not shown) gave a remaining binding of 100% (PRKCH; KINOMEscan; 1 µM; relative to: DMSO control).
`CC[C@H](C)[C@H](NC(=O)[C@@H](NC(=O)c1ccnc(Cl)c1Cl)C(C)(C)C)C(=O)N[C@H](C(=O)N[C@H](C(=O)N[C@H](C(=O)N[C@@H](CCC(N)=O)C(=O)N[C@@H](Cc1c[nH]cn1)C(=O)N[C@H](CC(C)C)C(=O)N[C@@H](CO)C(=O)NCCOCCOCC(=O)N[C@@H](CCCCNC(=O)CC[C@@H]1NC(=O)[C@@H](CCCNC(=N)N)NC(=O)[C@H](CCCNC(=N)N)NC(=O)[C@@H](CCCNC(=N)N)NC(=O)[C@H](CCCNC(=N)N)NC(=O)[C@H](Cc2ccc3ccccc3c2)NC(=O)[C@@H](Cc2ccccc2)NC1=O)C(N)=O)[C@@H](C)O)[C@@H](C)CC)C(C)(C)O` — result for “lung wet-to-dry weight ratio”: “decreased” (mouse, acute lung injury, LPS-induced; intranasal, 3 mg/kg, 6 h, with: LPS 4 mg/kg intranasal; relative to: vehicle).
`COC1OC(C)C(O)C(OC2OC(C)C(O)C(OC3OC(C)C(O)C(OC4OC(C)C(O)C(OC5OC(C)C(O)C(OC6OC(C)C(O)C(OS(=O)(=O)O)C6OS(=O)(=O)O)C5OS(=O)(=O)O)C4OS(=O)(=O)O)C3OS(=O)(=O)O)C2OS(=O)(=O)O)C1OS(=O)(=O)O` (stereo not shown) gave a prothrombin time of 14.8 ± 0.3 s (human plasma; 128 µg/mL).
With `COc1ccccc1C1NCCc2cc(O)c(O)cc21` (stereo not shown) the IC50 was 9.62 µM (ABTS scavenging; 10 min, dark).
`COC1OC(C)C(OS(=O)(=O)O)C(OC2OC(C)C(OS(=O)(=O)O)C(OC3OC(C)C(OS(=O)(=O)O)C(OC4OC(C)C(OS(=O)(=O)O)C(OC5OC(C)C(OS(=O)(=O)O)C(OS(=O)(=O)O)C5O)C4O)C3O)C2O)C1O` (stereo not shown) has a prothrombin time of 14.5 ± 0.3 s (human plasma; 128 µg/mL).
`CCCC[C@H](NC(=O)COCCOCCNC(=O)CN1CCN(CC(=O)O)CCN(CC(=O)O)CC1)C(=O)N[C@H]1CC(=O)NCCCC[C@@H](C(N)=O)NC(=O)[C@H](Cc2c[nH]c3ccccc23)NC(=O)[C@H](CCCNC(=N)N)NC(=O)[C@@H](Cc2ccccc2)NC(=O)[C@H](Cc2c[nH]cn2)NC1=O` [technetium-99m labelled] gave a tissue uptake of 0.04 ± 0.01 %ID/g (C57 mouse, lung; intravenous, 0.037 MBq, 24 h).
`Oc1cccc(C2NCCc3cc(O)c(O)cc32)c1` (stereo not shown) gave an IC50 of 6.9 µM (ABTS scavenging; 10 min, dark).
The tumour volume of `COC(=O)C1CN1S(=O)(=O)c1ccc2cc(C)ccc2c1` (stereo not shown) is reported as 891 mm3 (mouse, Lewis lung carcinoma; ip, 100 mg/kg, 384 h).
With `COc1cc([C@H](O)[C@H](O)CO)ccc1O` the IC50 was 7.35 µg/mL (ABTS scavenging).
The reduction of `C[C@@H](Nc1c(-c2c(F)cc(C#N)cc2F)c(Cl)nc2ncnn12)C(C)(C)C` is reported as ~50% (immunoblot, item: insoluble AT8 phospho-tau; male PS19 tau transgenic mice, brain; intraperitoneal, 3 mg/kg twice weekly, 3 months; relative to: vehicle).
`COC1OC(C)C(OS(=O)(=O)O)C(OC2OC(C)C(OS(=O)(=O)O)C(OC3OC(C)C(OS(=O)(=O)O)C(OC4OC(C)C(OS(=O)(=O)O)C(OC5OC(C)C(OS(=O)(=O)O)C(OC6OC(C)C(OS(=O)(=O)O)C(OC7OC(C)C(OS(=O)(=O)O)C(OS(=O)(=O)O)C7O)C6O)C5O)C4O)C3O)C2O)C1O` (stereo not shown) — result for “prothrombin time prolongation”: 1 fold (human plasma; 128 µg/mL; relative to: control).
For `NC[C@@H](C(=O)Nc1ccc(-c2cn[nH]c2)cc1)c1ccccc1`, the IOP was 30.9 mmHg (tonometry; NZW rabbit, magnetic bead-induced ocular hypertension; ocular, 0.03%, 32 h).
`CC(CCC(=O)NCc1ccc(C(=O)NO)cc1)C1CCC2C3C(O)CC4CC(O)CCC4(C)C3CCC12C` (stereo not shown) gave a relative abundance of 8.76% (item: GCA; PCK rat (Pkhd1 mutant), portal blood; oral gavage, dose not given, 5 months; relative to: total bile acids).
`CC(C)(C)NCC(SS(=O)(=O)O)c1ccccc1` (stereo not shown): “liver weight decrease” 23% (Schistosoma mansoni-infected mice; 400 mg/kg single, day 42, perfusion day 56; relative to: vehicle).
`COC1OC(C)C(OS(=O)(=O)O)C(OC2OC(C)C(OS(=O)(=O)O)C(OC3OC(C)C(OS(=O)(=O)O)C(OC4OC(C)C(OS(=O)(=O)O)C(OS(=O)(=O)O)C4OS(=O)(=O)O)C3OS(=O)(=O)O)C2OS(=O)(=O)O)C1OS(=O)(=O)O` (stereo not shown) — result for “prothrombin time prolongation”: 0.99 fold (human plasma; 128 µg/mL; relative to: control).
For `CC[n+]1cccc2cc(/C=N/NC(=O)c3ccc4ccc(C(=O)N/N=C/c5ccc6c(ccc[n+]6CC)c5)nc4n3)ccc21`, the ΔTm was 9 ± 0.2 °C (MYC parallel G4 DNA; FRET melting; 1 µM, DNA 0.2 µM, with: duplex DNA competitor 10 µM).
For `Cc1ncsc1-c1ccc(C(C)NC(=O)C2CC(O)CN2C(=O)C(NC(=O)CCCCCCCCCCN2CCCC(Nc3ncc(Cl)c(Nc4ccccc4S(=O)(=O)C(C)C)n3)C2)C(C)(C)C)cc1` (stereo not shown), “log2 fold change” read -1.55 (22Rv1; RNA-seq, item: ZNF701 mRNA; concentration not given; relative to: DMSO).
`COC1OC(C)C(O)C(OC2OC(C)C(O)C(OS(=O)(=O)O)C2OS(=O)(=O)O)C1OS(=O)(=O)O` (stereo not shown): “prothrombin time prolongation” 1.02 fold (human plasma; 128 µg/mL; relative to: control).
`CCCCNC(CCCC)CSS(=O)(=O)O` (stereo not shown): “liver weight decrease” 17% (Swiss Webster mice, Schistosoma mansoni infected; 100 mg/kg; relative to: vehicle control).
With `COC1OC(C)C(OC2OC(C)C(OS(=O)(=O)O)C(OC3OC(C)C(OC4OC(C)C(OS(=O)(=O)O)C(OC5OC(C)C(OS(=O)(=O)O)C(OS(=O)(=O)O)C5O)C4O)C(OS(=O)(=O)O)C3O)C2O)C(OS(=O)(=O)O)C1O` (stereo not shown) the prothrombin time was 15.2 ± 0.5 s (human plasma; 128 µg/mL).
With `COc1cc(/C=C2\CN(C)C/C(=C\c3cc(Cl)c(O)c(OC)c3)C2=O)cc(Cl)c1O` the IC50 was 197 µg/mL (ABTS scavenging; 20 min).
`COC1OC(C)C(OC2OC(C)C(OS(=O)(=O)O)C(OC3OC(C)C(OC4OC(C)C(OS(=O)(=O)O)C(OC5OC(C)C(OC6OC(C)C(OS(=O)(=O)O)C(OC7OC(C)C(OC8OC(C)C(OS(=O)(=O)O)C(OC9OC(C)C(OC%10OC(C)C(OS(=O)(=O)O)C(OS(=O)(=O)O)C%10O)C(OS(=O)(=O)O)C9O)C8O)C(OS(=O)(=O)O)C7O)C6O)C(OS(=O)(=O)O)C5O)C4O)C(OS(=O)(=O)O)C3O)C2O)C(OS(=O)(=O)O)C1O` (stereo not shown) gave a prothrombin time of 14.7 ± 0.2 s (human plasma; 128 µg/mL).
Under “amyloid plaque load”, `CCCCCCCCCCCCCCCC(=O)OCC(CSC[C@H](N)C(=O)N[C@@H](CO)C(=O)N[C@@H](CCCCN)C(=O)N[C@@H](CCCCN)C(=O)N[C@@H](CCCCN)C(=O)N[C@@H](CCCCN)C(=O)NCCCCCC(=O)N[C@@H](CCCCN)C(=O)N[C@@H](CC(C)C)C(=O)N[C@H](C(=O)N[C@@H](Cc1ccccc1)C(=O)N[C@@H](Cc1ccccc1)C(=O)N[C@@H](Cc1ccc2ccccc2c1)C(=O)O)C(C)C)OC(=O)CCCCCCCCCCCCCCC` (stereo partly shown) is recorded as 0.665 and 0.321 and 0.409 and 0.52 and 0.368 (thioflavin S staining; APP/PS1 transgenic mouse, hippocampus; intrahippocampal, 10 d, unit not given; relative to: injected over adjacent side).
